Experimental data gathered from unrelated publications.
Protocols differ between the studies behind these lines. “And” joins repeats or separate records; there may be more than shown. ± marks the error that the study gave.
UCHL1: Ubiquitin carboxyl-terminal hydrolase isozyme L1 (UCHL1, Homo sapiens, UniProt P09936)
UniProt P09936, sequence (whole entry, looked up): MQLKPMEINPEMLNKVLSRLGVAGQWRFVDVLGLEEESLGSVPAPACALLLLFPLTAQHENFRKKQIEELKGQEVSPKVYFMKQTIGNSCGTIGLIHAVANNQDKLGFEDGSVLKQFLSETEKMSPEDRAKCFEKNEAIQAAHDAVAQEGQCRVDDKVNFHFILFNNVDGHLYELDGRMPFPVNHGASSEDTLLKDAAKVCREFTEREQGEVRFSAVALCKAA
UniProt Q07794, sequence (whole entry, looked up): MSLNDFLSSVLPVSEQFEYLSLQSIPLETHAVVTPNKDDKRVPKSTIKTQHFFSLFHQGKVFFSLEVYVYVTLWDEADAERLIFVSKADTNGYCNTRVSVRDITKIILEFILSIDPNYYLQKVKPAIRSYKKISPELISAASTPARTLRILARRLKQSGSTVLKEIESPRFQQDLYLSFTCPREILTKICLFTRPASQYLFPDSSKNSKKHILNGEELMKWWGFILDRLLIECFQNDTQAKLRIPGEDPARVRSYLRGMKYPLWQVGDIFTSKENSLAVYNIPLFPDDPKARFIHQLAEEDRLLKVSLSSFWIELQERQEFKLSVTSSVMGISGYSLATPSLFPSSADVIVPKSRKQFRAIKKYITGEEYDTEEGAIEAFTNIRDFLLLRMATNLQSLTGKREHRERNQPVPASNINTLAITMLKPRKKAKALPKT

| Structure (SMILES) | target or system | assay | test system | setting | how to read | endpoint | result |
| --- | --- | --- | --- | --- | --- | --- | --- |
| C#C[C@@]1(O)[C@@H](CO)O[C@@H](n2cc(I)c3c(N)ncnc32)[C@@H]1O | MCF7 | SRB |  | NCI-60 screen |  | TGI | > 100 µM |
| C=CC(=O)c1ccccc1Nc1cc(C(F)(F)F)ccc1OC | MCF7 | firefly luciferase reporter |  | 100 µM, 6 h | reference: vehicle | TEAD reporter activity | 10.8 ± 2% |
| CC(=O)c1nn(-c2ccc(Cl)cc2)/c(=N/N=C(\C)c2ccc(NC(=O)c3ccc(Cl)cc3)cc2)s1 | MCF7 |  |  | 2.5 µM |  | toxicity | 12.5% |
| Cc1ccc(Cn2cc(COc3cccc(Cc4cnc(NC(=O)CSc5nc(C)cc(C)n5)s4)c3)nn2)cc1 | MCF7 | cell viability, MTS |  | 10 µM |  | inhibition | 10.8 ± 3.1% |
| C[C@@H]1CC[C@@H]([C@@](O)(CNCc2ccccc2)COCc2ccccc2)[C@H](OCc2ccccc2)C1 | MCF7 | cell growth, inhibitor, MTT |  | 72 h |  | IC50 | 3.69 µM |
| O=C(O)c1ccccc1Nc1cccc(C(F)(F)F)c1 | MCF7 | firefly luciferase reporter |  | 100 µM, 6 h | reference: vehicle | TEAD reporter activity | 96.8 ± 2.1% |
| OCc1ccc(Nc2ccc3c(Nc4cccc(C(F)(F)F)c4)ncnc3c2)cc1 | MCF7 | annexin V-PE/DAPI |  | concentration not given, 24 h |  | early apoptotic cells | 12.8% |
| CCOC(=O)c1nn(-c2cccc(Cl)c2)/c(=N/N=C(\C)c2ccc(NC(=O)c3ccccc3)cc2)s1 | MCF7 | MTT |  | 2.5 µM |  | cytotoxicity | 97.3% |
| CCOC(=O)c1sc(=NN=C(C)c2c(O)c3ccccc3oc2=O)n(CC)c1C | MCF7 | cell growth, MTT |  |  | reference: IC50 BJ-1 over MCF7 | selectivity index | > 4.83 |
| CC(=O)c1nn(-c2ccccc2Cl)/c(=N/N=C(\C)c2ccc(NC(=O)c3ccccc3)cc2)s1 | MCF7 | MTT |  | 2.5 µM |  | cytotoxicity | 93.8% |
| CN1CCC(OC(=O)c2ccc(Br)cc2)CC1.Cl | Trypanosoma cruzi | reporter translation, Renilla luciferase mRNA translation | cell-free extract | 40 µM | reference: DMSO | inhibition | -0.6% |
| C=CC(=O)c1cccnc1Nc1cc(NC(C)=O)ccc1OC | MCF7 | firefly luciferase reporter |  | 50 µM, 6 h | reference: vehicle | TEAD reporter activity | 45.6 ± 1.4% |
| CC(C)(C)OC(=O)CC[C@H](NC(=O)c1cc(Cl)ccc1OCCNC(=O)OC(C)(C)C)C(=O)Nc1ccc([N+](=O)[O-])cc1Cl | MCF7 |  |  | up to 10 µM, 72 h |  | antiproliferative activity | inactive |
| CCC(=O)N1CCC(COCC(=O)N2CCN(c3nc(-c4cnc(N)nc4C(F)F)nc(N4CCOC[C@@H]4C)n3)CC2)CC1 | MCF7 | resazurin growth rate inhibition |  | 72 h |  | GR50 | 180 nM |
| Cc1ccccc1NC(=O)C(C#N)=Cc1cccnc1 | UCHL1 | covalent, intact protein LC-MS |  | 12.5 µM |  | labelling | 8.01% |
| O=C1NC(c2ccccc2)(c2ccccc2)C(=O)N1Cc1cn(-c2cc3ccccc3oc2=O)nn1 | MCF7 | NCI60 single-dose screen |  | 10 µM |  | growth percentage | 91.4% |
| O=[N+]([O-])c1cc(I)c(O)c(C=NNc2ccccc2)c1 | MCF7 | ELISA | culture supernatant | IC50, added: LPS |  | TNF-α level | 42.3% |
| CC(=O)c1nn(-c2ccc(C)cc2)/c(=N/N=C(\C)c2ccc(NC(=O)c3ccccc3)cc2)s1 | MCF7 | MTT |  | 0.156 µM |  | cytotoxicity | 90.9% |
| CC(Cl)C(=O)NCc1cccc(N2C(=O)NC3(CCCC3)C2=O)c1 (stereo not drawn) | UCHL1 | covalent, intact protein LC-MS |  | 12.5 µM |  | labelling | 9.72% |
| CC(=O)c1nn(-c2ccc(Cl)cc2)/c(=N/N=C(\C)c2ccc(NC(=O)c3ccccc3)cc2)s1 | MCF7 |  |  | 0.312 µM |  | toxicity | 80.8% and 95.9% |
| CC(=NN=c1sc(N=Nc2ccccc2)c(C)n1C)c1c(O)c2ccccc2oc1=O | MCF7 | cell growth, MTT |  |  | reference: IC50 BJ-1 over MCF7 | selectivity index | > 3.09 |
| c1ccc(Nc2nc(-c3ccccc3)ns2)cc1 | Histone acetyltransferase RTT109, with Vps75 (Saccharomyces cerevisiae, UniProt Q07794) | enzyme activity, inhibitor, HTS, CPM-based, dose response |  |  |  | IC50 | > 125 µM |
| C=CC(=O)c1cccnc1Nc1cc(C)ccc1OC | MCF7 | firefly luciferase reporter |  | 100 µM, 6 h | reference: vehicle | TEAD reporter activity | 1.9 ± 0.3% |
| CCCCN1CCN(c2ccc3[nH]c(-c4ccc5[nH]c(-c6ccc(OCC)cc6)nc5c4)nc3c2)CC1 | MCF7 | SRB |  | 10 µM, 48 h |  | growth percent | 1.77% |
| NNc1nc(-c2ccc(Cl)cc2)c2c(NC(=O)c3ccccc3)nnc-2[nH]1 | MCF7 | SRB |  | 10 µM, NCI60 single-dose screen | reference: untreated | cell growth | 96.8% |
| CC[C@@]1(O)C(=O)OCc2c1cc1n(c2=O)Cc2cc3c(CN(C)C)c(O)ccc3nc2-1 | MCF7 | MTT |  | 0.1 µM, 96 h |  | cell death | ~17% |
| CC(=O)c1nn(-c2ccc(Cl)cc2)/c(=N/N=C(\C)c2ccc(NC(=O)c3ccc(C)cc3)cc2)s1 | MCF7 |  |  | 2.5 µM |  | viability | 7.93% |

Repeated from above:
| Structure (SMILES) | target or system | assay | test system | setting | how to read | endpoint | result |
| --- | --- | --- | --- | --- | --- | --- | --- |
| OCc1ccc(Nc2ccc3c(Nc4cccc(C(F)(F)F)c4)ncnc3c2)cc1 | MCF7 | annexin V-PE/DAPI |  | concentration not given, 24 h |  | early apoptotic cells | 12.8% |
| C=CC(=O)c1cccnc1Nc1cc(NC(C)=O)ccc1OC | MCF7 | firefly luciferase reporter |  | 50 µM, 6 h | reference: vehicle | TEAD reporter activity | 45.6 ± 1.4% |
